Measured values pooled from the literature.
Parts stem from different laboratories: compare values within a part only. Changes are numbered by the printed parent chain.

Study 1
Target: CCND1, cyclin fold, Cln2 fusion (human)
Technique: yeast growth competition, sequencing
Matrix: yeast
Setting: strong parent motif
Baseline: not given
Reading: higher = stronger binding
Quantity: normalised enrichment score
Starting sequence: SCAPER docking peptide (human); SNARRSLNFGGST
SNARRSLNFKGST [G10K]: 0.253
SNARRSLNFGGAT [S12A]: 1.13
SEARRSLNFGGST [N2E]: 0.663
SNARKSLNLGGST [R5K F9L]: -0.193
SNARRILNFGGST [S6I]: 1.19
SNARRSLNFGHST [G11H]: 0.257

Study 2
Target: RING finger protein unkempt homolog, zinc fingers 1-6, GST-SBP tag (UNK, Homo sapiens, UniProt Q9C0B0, residues 30-357)
Chain of UniProt Q9C0B0 (30-357, looked up): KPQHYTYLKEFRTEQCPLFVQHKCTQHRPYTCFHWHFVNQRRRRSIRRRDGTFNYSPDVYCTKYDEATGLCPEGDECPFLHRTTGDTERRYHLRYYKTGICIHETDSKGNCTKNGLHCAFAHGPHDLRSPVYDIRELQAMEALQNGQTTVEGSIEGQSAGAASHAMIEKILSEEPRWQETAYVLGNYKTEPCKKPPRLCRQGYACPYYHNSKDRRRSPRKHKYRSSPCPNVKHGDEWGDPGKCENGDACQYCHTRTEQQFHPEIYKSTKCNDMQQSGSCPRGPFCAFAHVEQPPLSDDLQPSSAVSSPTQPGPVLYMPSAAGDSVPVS
Technique: RNA Bind-n-Seq
Molecule type: RNA
Matrix: in vitro
Concentration: not given
Setting: RNA with constant flanks, human-mouse chimeric sites, ends assumed
Baseline: input RNA pool
Reading: higher = stronger binding
Quantity: bound/input enrichment
Shared flanks, not repeated: GGGAGUUCUACAGUCCGACGAUC … CAACAGAGGAUUGAGCAUCA
AACUUCGUGCAUCGGUUUCCCUUUGUAGCUGUUUCAAUUGGCUUCCUUGUGAAUAAAGAGAUGGAGUUUGGAGUUGUGUACAGCUGUGUGGAAGAUAAGAUGUACACUGCCAGAAAAGGG: 0.345 ratio
GACUUUGGGACUGGUCCUCGUAAUGCAGCCUUCUAUAGCCCUCAUGGACAUAUAUUAGUGCUGGCUGGAUUUGGAAAUCUGAGGGGACAAAUGGAAGUAUGGGAUGUUAAAAACUACAAG: 0.487 ratio
GUUGCCAGCUUCCGGUUCCGUUGGGCUAGCAAGCUCCCUGAGCUACGUGUCUCUACGCUCUCAAUCCGCCAUCCAACAAACAUGGAUCAGGUAAUGCUGCAGUUUGUGCCCAGCCGGCAG: 0.168 ratio
ACCUCCCAGGCCUGGGACACCCCACCCCCGCUUUUUGGAAAGUUUUUGGCUUUUUUUUUCCUUCCCCAUACAAAGUGAUUACAGUUUCCCCCGCAAGGGUCUAUCGAAGGGCUUGACGGA: 0.526 ratio
GCAAGAGAUGAUGAGGCGGCAGCUGUUGCCCUUUCCUCUCUCGUUCAUGCUUUGGAUGACUUAGACAUGGUCGCCAUCGUCCGAUAUGCUUAUGACAAAAGAUCUAAUCCUCAAGUUGGU: 0.121 ratio
GUACUGCAGCAGCAGGGAAAACUGCAGGAAGCUCUGAUGCAUUAUAAAGAAGCCAUACGAAUCAGUCCUACCUUUGCUGAUGCUUAUUCUAAUAUGGGAAACACUCUAAAGGAGAUGCAG: 0.218 ratio
UAAAUUAGGGCUGCCGUCCGUUCUCACUCCCUGGGCUGCGGAAAGCCAGAAGAUUUUAUCUAGUUUGUACAAGGCUGCUGGUGUUCCCUCUUUUUUUCCACGAGGGUGUUUUUGGCUGCA: 0.704 ratio
CUUCGGAAAAAAAAAUUACCUUUUCUGACAGUGCUUUCCCUCCCAUAGAUCCACGUUCAAGCUCAAAGAGCAAAGGCUUUGCACGGAGCUCAAACAUCUGAUGAAGAAAGAUUUCUGAGA: 0.349 ratio
AGGAGGAGAUUAAAGGGUGAGAGUGGGAUGGAGGAUUGUGUCAUGGCUCUGGAGACACUGUUCAGUGUCCUGCUUUCUCUGUGCAGACUGAUGGCCCCUUACACGCCCUUUCUGACUGAG: 0.124 ratio
ACUCUUGACUCUUUCCAUUCUCGUCCCUUCCCUCUUGAUAUUCAAGGCCAUGAAUCCCAAAAUAGCUGUCUUAGUGGCUAGCACCCAAACAGAGGUGGAAUAAAUCCACCCCAGUGUCUC: 0.791 ratio

Study 3
Target: Fragile X messenger ribonucleoprotein 1, C-terminal low-complexity region (Fmr1, Mus musculus, UniProt P35922)
Technique: RNA Bind-n-Seq
Molecule type: RNA
Matrix: in vitro
Concentration: 200 nM
Setting: whole 134-nt RNA, ends assumed
Added: 150 mM KCl
Baseline: input library
Reading: higher = stronger binding
Quantity: log2 enrichment
Shared flanks, not repeated: GGGAGUUCUACAGUCCGACGAUC … UGGAAUUCUCGGGUGUCAAGG
UCCUGUGCUACACAUCGUAUGUACCGAAUCGGGUUUGGGUUUUUUUGGGUUUUUUUGGGAAAGUAUUAUGUUACGCCGUUCGGAUCUGCA: 0.329
CAAGUCCUGUGCUACACAUCGUAUGUACCGAAUCGGGGUUUGGGGUUUGGGUUUGGAAAGUAUUAUGUUACGCCGUUCGGAUCUGCACUU: 0.00663
GCAGGAAGUAAAAACAAAUGGAAAUGCUUCGGAUAGUGGCAGGGGUGGGGGUUGCUAAGGAAAGGGUGGGAUGGGGGUGGGUAAAGAGUU: 0.0317
UGGGAGGUGGAUUUUGUUUAUUUUUUUAGCUCAUUUCCAGGGGUGGGAAUUUUUUUUUAAUAUGUGUGAUGAAUAAAGUUGUUUUUGAAA: 0.251
AGUCCUGUGCUACACAUCGUAUGUACCGAAUCAAACCCCCAAAUUUUUAAAUUUAAAAAAGUAUUAUGUUACGCCGUUCGGAUCUGCACU: 0.142
UGGCCCUGGUGGCAUGCGGGGAGGAAGAGGUGGCCUCAUGGAUCGUGGUGGUUCCGGUGGAAUGUUCAGAGGUGGCCGUGGUGGAGACAG: 0.139
AGUCCUGUGCUACACAUCGUAUGUACCGAAUCGGGGAAAAGGGAAAAGGGAAAAGGGGAAAGUAUUAUGUUACGCCGUUCGGAUCUGCAC: 0.481

Other studies, line by line
PhoQ, residues 284 288 289 292 302 303 SLSVQF  fold induction (PhoP, residues 12 14 15 18 19 HEGLL (Escherichia coli, UniProt P23836); Sort-seq, refers to: YFP reporter; E. coli; PhoQ-PhoP variant library, added: 10 µM Mg2+; baseline: high Mg2+ state, higher = stronger signaling): 15.8

Excerpt of the above (study 2):
GUACUGCAGCAGCAGGGAAAACUGCAGGAAGCUCUGAUGCAUUAUAAAGAAGCCAUACGAAUCAGUCCUACCUUUGCUGAUGCUUAUUCUAAUAUGGGAAACACUCUAAAGGAGAUGCAG: 0.218 ratio
ACCUCCCAGGCCUGGGACACCCCACCCCCGCUUUUUGGAAAGUUUUUGGCUUUUUUUUUCCUUCCCCAUACAAAGUGAUUACAGUUUCCCCCGCAAGGGUCUAUCGAAGGGCUUGACGGA: 0.526 ratio
GACUUUGGGACUGGUCCUCGUAAUGCAGCCUUCUAUAGCCCUCAUGGACAUAUAUUAGUGCUGGCUGGAUUUGGAAAUCUGAGGGGACAAAUGGAAGUAUGGGAUGUUAAAAACUACAAG: 0.487 ratio
